Published values from different studies.
Every numbered part comes from another study and shows a few of its results, in no order. pEC50: −log10 of the molar value.
Chain of UniProt Q8WTQ7 (whole entry, looked up): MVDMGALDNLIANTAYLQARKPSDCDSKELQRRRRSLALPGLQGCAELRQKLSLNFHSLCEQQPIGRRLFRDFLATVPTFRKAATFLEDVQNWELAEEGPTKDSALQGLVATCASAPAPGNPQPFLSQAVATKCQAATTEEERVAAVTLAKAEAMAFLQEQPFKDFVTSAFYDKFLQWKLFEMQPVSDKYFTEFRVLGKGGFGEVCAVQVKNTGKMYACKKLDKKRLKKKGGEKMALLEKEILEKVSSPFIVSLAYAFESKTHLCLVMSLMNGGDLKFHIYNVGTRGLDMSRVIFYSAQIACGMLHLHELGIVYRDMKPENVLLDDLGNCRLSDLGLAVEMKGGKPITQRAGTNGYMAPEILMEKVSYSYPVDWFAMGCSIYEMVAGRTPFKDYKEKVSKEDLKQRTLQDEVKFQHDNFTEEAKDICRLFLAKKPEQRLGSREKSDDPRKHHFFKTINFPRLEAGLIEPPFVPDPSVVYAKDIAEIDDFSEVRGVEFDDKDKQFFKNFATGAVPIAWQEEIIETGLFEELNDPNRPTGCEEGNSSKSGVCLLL
Chain of UniProt O14936 (whole entry, looked up): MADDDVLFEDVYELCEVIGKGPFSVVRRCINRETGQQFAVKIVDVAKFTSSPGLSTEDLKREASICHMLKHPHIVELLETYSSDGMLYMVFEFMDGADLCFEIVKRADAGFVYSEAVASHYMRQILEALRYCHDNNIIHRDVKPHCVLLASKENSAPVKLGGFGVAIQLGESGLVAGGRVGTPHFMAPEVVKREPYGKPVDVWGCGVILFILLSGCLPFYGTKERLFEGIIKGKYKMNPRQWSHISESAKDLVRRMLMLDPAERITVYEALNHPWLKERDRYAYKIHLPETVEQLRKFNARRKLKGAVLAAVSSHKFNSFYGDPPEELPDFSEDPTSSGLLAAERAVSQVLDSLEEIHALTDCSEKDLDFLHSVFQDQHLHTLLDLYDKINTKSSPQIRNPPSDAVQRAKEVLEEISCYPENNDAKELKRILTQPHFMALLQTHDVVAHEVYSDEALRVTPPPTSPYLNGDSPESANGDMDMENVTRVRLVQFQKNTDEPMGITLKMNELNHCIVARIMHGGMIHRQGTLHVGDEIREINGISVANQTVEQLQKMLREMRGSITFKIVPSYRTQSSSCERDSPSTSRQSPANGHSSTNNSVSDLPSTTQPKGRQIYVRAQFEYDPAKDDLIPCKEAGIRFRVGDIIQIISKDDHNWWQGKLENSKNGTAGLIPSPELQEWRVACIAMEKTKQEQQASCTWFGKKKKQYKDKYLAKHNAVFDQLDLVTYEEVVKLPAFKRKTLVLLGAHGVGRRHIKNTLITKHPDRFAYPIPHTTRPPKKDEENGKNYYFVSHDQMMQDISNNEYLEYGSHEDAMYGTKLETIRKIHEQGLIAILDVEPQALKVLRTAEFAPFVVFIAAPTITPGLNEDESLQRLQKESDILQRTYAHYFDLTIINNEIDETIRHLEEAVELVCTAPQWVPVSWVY
Chain of UniProt O75914 (whole entry, looked up): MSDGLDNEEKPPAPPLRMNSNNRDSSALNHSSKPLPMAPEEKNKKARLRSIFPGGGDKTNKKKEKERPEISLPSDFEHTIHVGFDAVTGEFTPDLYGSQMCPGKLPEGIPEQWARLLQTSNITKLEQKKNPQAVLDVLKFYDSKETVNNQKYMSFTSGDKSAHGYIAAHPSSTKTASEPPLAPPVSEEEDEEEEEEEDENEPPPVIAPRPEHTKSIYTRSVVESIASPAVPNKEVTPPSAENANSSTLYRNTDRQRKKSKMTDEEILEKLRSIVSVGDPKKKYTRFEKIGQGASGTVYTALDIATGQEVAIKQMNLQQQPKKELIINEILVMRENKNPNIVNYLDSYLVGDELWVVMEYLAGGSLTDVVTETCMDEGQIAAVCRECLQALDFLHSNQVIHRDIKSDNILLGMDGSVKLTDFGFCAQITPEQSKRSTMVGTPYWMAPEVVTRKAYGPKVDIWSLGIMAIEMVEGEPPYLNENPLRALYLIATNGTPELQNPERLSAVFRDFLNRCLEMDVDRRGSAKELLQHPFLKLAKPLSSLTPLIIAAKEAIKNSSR
Chain of UniProt P30530 (whole entry, looked up): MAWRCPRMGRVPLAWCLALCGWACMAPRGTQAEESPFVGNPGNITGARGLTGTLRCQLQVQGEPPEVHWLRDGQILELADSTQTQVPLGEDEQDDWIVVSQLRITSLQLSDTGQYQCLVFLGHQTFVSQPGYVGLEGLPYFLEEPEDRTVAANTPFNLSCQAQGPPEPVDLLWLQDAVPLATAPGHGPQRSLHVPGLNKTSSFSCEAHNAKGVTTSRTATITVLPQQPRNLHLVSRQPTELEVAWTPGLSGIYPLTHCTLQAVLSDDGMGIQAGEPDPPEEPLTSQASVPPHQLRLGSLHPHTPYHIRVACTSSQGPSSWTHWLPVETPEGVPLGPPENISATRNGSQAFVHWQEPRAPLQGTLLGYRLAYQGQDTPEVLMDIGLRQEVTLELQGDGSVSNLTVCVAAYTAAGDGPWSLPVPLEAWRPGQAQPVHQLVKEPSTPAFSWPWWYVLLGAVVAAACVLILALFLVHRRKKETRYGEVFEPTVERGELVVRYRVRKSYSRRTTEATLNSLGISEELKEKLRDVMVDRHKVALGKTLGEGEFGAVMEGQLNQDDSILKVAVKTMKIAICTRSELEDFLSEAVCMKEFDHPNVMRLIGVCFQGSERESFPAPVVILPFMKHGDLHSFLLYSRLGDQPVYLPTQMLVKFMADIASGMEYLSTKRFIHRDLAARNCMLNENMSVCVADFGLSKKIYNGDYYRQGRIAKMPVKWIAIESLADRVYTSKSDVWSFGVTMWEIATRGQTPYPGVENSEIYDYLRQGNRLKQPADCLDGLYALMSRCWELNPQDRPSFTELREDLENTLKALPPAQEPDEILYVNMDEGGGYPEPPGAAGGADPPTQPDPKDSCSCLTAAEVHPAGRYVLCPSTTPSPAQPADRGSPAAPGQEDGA

Study 1
Target: Beta-1 adrenergic receptor (ADRB1, Homo sapiens, UniProt P08588)
Chain of UniProt P08588 (whole entry, looked up): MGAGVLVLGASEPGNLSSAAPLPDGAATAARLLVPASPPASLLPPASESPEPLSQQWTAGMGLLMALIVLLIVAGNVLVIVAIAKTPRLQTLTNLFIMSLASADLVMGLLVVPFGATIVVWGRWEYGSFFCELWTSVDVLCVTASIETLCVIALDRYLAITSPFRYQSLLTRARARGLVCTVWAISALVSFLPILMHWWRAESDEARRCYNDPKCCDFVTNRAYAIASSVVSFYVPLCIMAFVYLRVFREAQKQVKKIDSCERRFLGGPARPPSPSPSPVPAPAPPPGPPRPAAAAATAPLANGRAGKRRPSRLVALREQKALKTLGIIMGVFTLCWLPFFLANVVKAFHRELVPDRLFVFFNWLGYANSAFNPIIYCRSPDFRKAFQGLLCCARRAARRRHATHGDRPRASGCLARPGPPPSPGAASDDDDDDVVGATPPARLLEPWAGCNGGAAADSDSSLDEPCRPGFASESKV
Mode: agonist
The pEC50 of `COc1ccc2c(O[C@H]3CC4C(=O)N(C)CCCCC=C[C@@H]5C[C@@]5(C(=O)N[S+](=O)([O-])C5CC5)NC(=O)[C@@H]4C3)cc(-c3nc(C(C)C)cs3)nc2c1C` (stereo partly drawn) is reported as ≤ 4.00.
The pEC50 of `COc1cccc2ccc(-c3nccn3CC3(CO)CCOCC3)nc12` is reported as ≤ 4.00.
The pEC50 of `O=C(Nc1cc(F)ccc1Cl)c1cc2n(n1)CC(c1ccc(Br)cc1)OC2` (stereo not drawn) is reported as ≤ 4.00.
`Cc1ccc(C(=O)Nc2cccc(C(F)(F)F)c2)cc1-c1ccc2nc(NCCN3CCOCC3)ncc2c1` gave a pEC50 of ≤ 4.00.
With `Cc1noc2c(N(C)C)cc(-c3ccccc3)nc12` the pEC50 was ≤ 4.00.
For `c1cc(N2CCOCC2)ccc1-c1cc(-c2cn[nH]c2)c2cncn2c1`, the pEC50 was ≤ 4.00.
For `O=C1COC[C@H]([C@H](O)c2ccc(NC(=O)c3ccccc3)cc2)N1`, the pEC50 was ≤ 4.00.
`COc1ccccc1N1CCN([C@H]2[C@@H]3OC[C@@H](O3)[C@@H](NCc3ccc4c(c3)OCO4)[C@@H]2O)CC1` has a pEC50 of ≤ 4.00.
`O=c1cc(N2CCNCC2)nc2sc3ccc4ccccc4c3n12` gave a pEC50 of ≤ 4.00.
`CCOCCN1C(=O)COC[C@@H]1[C@H](O)c1ccc(NC(=O)Cc2ccccc2)cc1` gave a pEC50 of ≤ 4.00.
With `CCOc1ccccc1N1CCN([S+](=O)([O-])c2cc(Cl)ccc2Cl)CC1` the pEC50 was ≤ 4.00.
With `CN(C)c1ccc(-c2nnc([C@H]3CCN(c4nccc(C(F)(F)F)n4)C3)o2)cc1` the pEC50 was ≤ 4.00.
For `OC(CNc1nccc(-c2cccnc2)n1)COc1ccc(Cl)cc1` (stereo not drawn), the pEC50 was ≤ 4.00.
`CCN1CCN(CC(O)COc2cccc(CNCCc3cccc(C)n3)c2)CC1` (stereo not drawn) has a pEC50 of ≤ 4.00.
The pEC50 of `Cc1ccc(C)c(-c2cc(C)c3ccccc3n2)c1` is reported as ≤ 4.00.
With `CC(=O)Oc1c(C)cc(OCC(O)CNC(C)C)c(C)c1C` (stereo not drawn) the pEC50 was ≤ 4.00.
With `Cc1noc2c(-c3cccnc3NCc3cnccn3)cc(-c3ccccc3)nc12` the pEC50 was ≤ 4.00.
`CC1=CC(C)(C)NC(Nc2nc(-c3ccccc3)c3ccccc3n2)=N1` has a pEC50 of ≤ 4.00.
`C=C(F)c1sc(CNCCCNc2cc(=O)c3ccccc3[nH]2)c(C)c1Br` has a pEC50 of ≤ 4.00.
`COc1cc([S+](=O)([O-])N2CCN(c3ccccc3OC)CC2)c(C)cc1C` has a pEC50 of ≤ 4.00.

Study 2
Target: Platelet-derived growth factor receptor beta (PDGFRB, Homo sapiens, UniProt P09619)
Chain of UniProt P09619 (whole entry, looked up): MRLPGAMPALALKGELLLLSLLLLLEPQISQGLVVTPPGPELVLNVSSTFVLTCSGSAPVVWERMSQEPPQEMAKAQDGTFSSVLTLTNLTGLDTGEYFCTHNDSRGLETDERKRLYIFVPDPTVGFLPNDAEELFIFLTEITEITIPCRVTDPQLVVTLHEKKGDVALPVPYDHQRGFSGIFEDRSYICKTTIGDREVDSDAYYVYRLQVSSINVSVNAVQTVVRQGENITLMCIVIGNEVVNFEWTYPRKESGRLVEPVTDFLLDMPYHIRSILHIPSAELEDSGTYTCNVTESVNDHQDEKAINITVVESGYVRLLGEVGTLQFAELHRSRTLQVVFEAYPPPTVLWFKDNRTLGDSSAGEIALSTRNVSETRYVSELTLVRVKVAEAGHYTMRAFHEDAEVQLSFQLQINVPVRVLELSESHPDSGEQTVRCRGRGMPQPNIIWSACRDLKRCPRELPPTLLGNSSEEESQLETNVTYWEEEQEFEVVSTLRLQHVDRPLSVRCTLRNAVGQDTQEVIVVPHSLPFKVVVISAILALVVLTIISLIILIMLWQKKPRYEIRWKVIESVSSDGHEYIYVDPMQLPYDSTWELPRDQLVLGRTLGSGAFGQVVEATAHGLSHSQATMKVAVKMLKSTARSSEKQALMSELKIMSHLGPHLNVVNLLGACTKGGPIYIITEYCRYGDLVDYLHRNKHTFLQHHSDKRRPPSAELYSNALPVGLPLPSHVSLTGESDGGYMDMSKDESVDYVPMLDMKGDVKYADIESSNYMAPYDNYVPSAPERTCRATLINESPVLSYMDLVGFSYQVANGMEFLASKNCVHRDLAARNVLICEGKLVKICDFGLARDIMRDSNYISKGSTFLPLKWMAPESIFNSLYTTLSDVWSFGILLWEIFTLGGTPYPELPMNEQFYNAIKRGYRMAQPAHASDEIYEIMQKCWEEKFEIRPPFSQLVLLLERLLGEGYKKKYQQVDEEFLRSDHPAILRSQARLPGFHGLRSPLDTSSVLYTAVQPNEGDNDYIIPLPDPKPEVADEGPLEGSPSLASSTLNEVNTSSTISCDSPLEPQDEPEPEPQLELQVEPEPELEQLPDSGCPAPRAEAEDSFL
Effect on: enzyme activity
Mode: inhibitor
Concentration: 0.5 µM
Baseline: control
`O=Nc1c(-c2c(O)[nH]c3ccccc23)[nH]c2ccccc12` gave a remaining activity of 72.6%.
`O=C1NC(=O)/C(=C/c2ccc3c(c2)OC(F)(F)O3)S1` has a remaining activity of 97.4%.
`NC(=O)c1cccc(-c2cc(Nc3ccc(OC(F)(F)F)cc3)ncn2)c1` gave a remaining activity of 94.8%.
For `CNc1cc2c(Nc3cccc(Br)c3)ncnc2cn1`, the remaining activity was 86.4%.
`O=c1c(-c2ccc(F)cc2)c(-c2ccncc2)[nH]n1-c1ccc(Cl)cc1` gave a remaining activity of 101%.
`N#CC(c1ccnc(NCCc2cccnc2)n1)c1nc2ccccc2s1` (stereo not drawn) gave a remaining activity of 103%.
For `N#C/C(=C(/N)SC1C=CC=CC1)c1cccc(C(O)c2ccncc2)c1` (stereo not drawn), the remaining activity was 101%.
`CC(C)n1cnc2c(Nc3cccc(Cl)c3)nc(NCCO)nc21` has a remaining activity of 94.7%.
For `FC(F)(F)c1ccc(/C=C/c2nc(COc3ccc(CCCCn4ccnn4)cc3)co2)cc1`, the remaining activity was 98.1%.
`O=C(O)/C=C/c1cc(Br)c(Br)c(Br)c1Br` has a remaining activity of 96%.
With `C[C@@H](N)[C@H]1CC[C@H](C(=O)Nc2ccncc2)CC1` the remaining activity was 98.4%.
The remaining activity of `O=C(c1ccccc1)c1ccc(N2CCOCC2)cc1O` is reported as 96.5%.
The remaining activity of `NC(=O)c1ccc(-c2nc(-c3ccc4c(c3)OCCO4)c(-c3ccccn3)[nH]2)cc1` is reported as 99.3%.
`CCCCc1c(-c2ccc(O)cc2)[nH]c2nccnc12` has a remaining activity of 91.4%.
For `c1cc(-c2cnn3cc(-c4ccc(OCCN5CCCCC5)cc4)cnc23)ccn1`, the remaining activity was 20.4%.
With `O=C1c2ccccc2-c2nc3nnnn3nc21` the remaining activity was 11.3%.
With `Nc1nc(Nc2ccc(S(N)(=O)=O)cc2)nn1C(=S)Nc1c(F)cccc1F` the remaining activity was 45.6%.
For `Clc1ccc(Nc2nnc(Cc3ccncc3)c3ccccc23)cc1`, the remaining activity was 65.6%.
The remaining activity of `CCN(CC)CCCCN1c2ccccc2Oc2ccc(Cl)cc21` is reported as 103%.

Study 3
SMILES: O=C(NC[C@@H]1[C@H]2CN(C(=O)OCc3cc(C(F)(F)F)cc(C(F)(F)F)c3)C[C@@H]12)c1ccc2[nH]nnc2c1
Effect on: cell-free assay
Method: competition with immobilised ligand
Concentration: 1 µM
CDK8 (Homo sapiens, UniProt P49336) — remaining binding: 100%.
For TSSK3 (Homo sapiens, UniProt Q96PN8): remaining binding read 100%.
For GRK7 (Homo sapiens, UniProt Q8WTQ7): remaining binding read 100%.
Non-receptor tyrosine-protein kinase TYK2, JH2 (TYK2, Homo sapiens, UniProt P29597) — remaining binding: 100%.
It gave 85% for remaining binding (NTRK1 (Homo sapiens, UniProt P04629)).
CASK (Homo sapiens, UniProt O14936) — remaining binding: 70%.
For Tyrosine-protein kinase ABL1, phosphorylated (ABL1, Homo sapiens, UniProt P00519, T315I): remaining binding read 93%.
For PIM3 (Homo sapiens, UniProt Q86V86): remaining binding read 100%.
The remaining binding was 87% (AXL (Homo sapiens, UniProt P30530)).
PAK3 (Homo sapiens, UniProt O75914) — remaining binding: 100%.
MTOR (Homo sapiens, UniProt P42345) — remaining binding: 100%.
For Tyrosine-protein kinase ABL1, phosphorylated (ABL1, Homo sapiens, UniProt P00519, F317L): remaining binding read 88%.
MAP3K9 (Homo sapiens, UniProt P80192) — remaining binding: 100%.
It gave 100% for remaining binding (TGFBR2 (Homo sapiens, UniProt P37173)).

Study 4
Target: Calcium/calmodulin-dependent protein kinase type II subunit alpha (CAMK2A, Homo sapiens, UniProt Q9UQM7)
Chain of UniProt Q9UQM7 (whole entry, looked up): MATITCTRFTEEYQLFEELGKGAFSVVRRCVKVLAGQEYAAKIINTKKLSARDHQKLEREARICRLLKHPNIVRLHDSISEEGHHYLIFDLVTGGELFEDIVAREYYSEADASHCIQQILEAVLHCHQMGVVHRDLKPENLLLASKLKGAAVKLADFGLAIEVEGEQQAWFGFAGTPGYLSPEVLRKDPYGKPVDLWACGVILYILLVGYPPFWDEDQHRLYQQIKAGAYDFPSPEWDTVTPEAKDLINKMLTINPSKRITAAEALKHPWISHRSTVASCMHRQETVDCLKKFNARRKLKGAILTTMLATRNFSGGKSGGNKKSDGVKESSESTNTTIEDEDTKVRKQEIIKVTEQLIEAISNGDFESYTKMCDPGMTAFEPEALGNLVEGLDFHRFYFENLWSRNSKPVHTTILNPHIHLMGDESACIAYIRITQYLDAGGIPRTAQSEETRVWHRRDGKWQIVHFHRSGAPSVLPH
Effect on: enzyme activity
Mode: inhibitor
Concentration: 10 µM
With `CC(C)=CC/C=C(\C)[C@H]1CC[C@]2(C)[C@@H]1[C@H](O)C[C@@H]1[C@@]3(C)CC[C@H](O[C@@H]4O[C@H](CO)[C@@H](O)[C@H](O)[C@H]4O[C@@H]4O[C@H](CO)[C@@H](O)[C@H](O)[C@H]4O)C(C)(C)[C@@H]3CC[C@]12C` the inhibition was 18%.
With `COc1ccc(C(C)=O)c(O)c1` the inhibition was 3%.
With `CSC(=O)OCC1=C[C@H](O)[C@@H]2C(C(=O)O)=CO[C@@H](O[C@@H]3O[C@H](CO)[C@@H](O)[C@H](O)[C@H]3O)[C@H]12` the inhibition was -6%.
The inhibition of `C[C@@H]1O[C@@H](O[C@H]2[C@H](OC(=O)[C@]34CCC(C)(C)C[C@H]3C3=CC[C@@H]5[C@@]6(C)C[C@H](O)[C@H](O[C@@H]7O[C@H](CO)[C@@H](O)[C@H](O)[C@H]7O)C(CO)(CO)[C@@H]6CC[C@@]5(C)[C@]3(C)C[C@H]4O)OC[C@H](O)[C@@H]2O)[C@H](O)[C@H](O)[C@H]1O[C@@H]1OC[C@@H](O)[C@H](O[C@@H]2OC[C@](O)(CO)[C@H]2O)[C@H]1O` is reported as -23%.
`CC(C)=CCC/C(C)=C/COc1ccc2ccc(=O)oc2c1` has an inhibition of -10%.
The inhibition of `COc1c(O)cc2oc(-c3ccc(O)cc3)cc(=O)c2c1O` is reported as 0%.
`C[C@@H](O)[C@H](O)[C@H](O)[C@@H](O)C=O` gave an inhibition of -44%.
With `CN(C)CCOCC(=O)NC12CC3CC(CC(C3)C1)C2` the inhibition was 2%.
`COc1ccc(-c2oc3c(CC=C(C)C)c(O)cc(O)c3c(=O)c2O[C@@H]2O[C@@H](C)[C@H](O)[C@@H](O)[C@H]2O)cc1` has an inhibition of 3%.
The inhibition of `CCC(C)c1nccnc1OC` (stereo not drawn) is reported as -55%.
For `C=C[C@]1(C)CC[C@@H](C(=C)C)C[C@H]1C(=C)C`, the inhibition was 24%.
The inhibition of `CC(=O)N[C@@H](CC(=O)O)C(=O)O` is reported as 12%.
The inhibition of `O[C@@H](CNC[C@H](O)[C@H]1CCc2cc(F)ccc2O1)[C@@H]1CCc2cc(F)ccc2O1` is reported as 4%.
With `O=C1c2c(O)cc(O)cc2O[C@H](c2cc(O)c(O)c(O)c2)[C@H]1O` the inhibition was -50%.
`CC1(C)Oc2cc3oc(=O)ccc3cc2CC1O` (racemic) gave an inhibition of -19%.
The inhibition of `C[C@H](Cc1cc2c(c(C(N)=O)c1)N(CCCO)CC2)NCCOc1ccccc1OCC(F)(F)F` is reported as -1%.
`O=c1c(O)c(-c2cc(O)c(O)c(O)c2)oc2cc(O)ccc12` gave an inhibition of -33%.
`CO/N=C1\C[C@]2(C[C@@H]3C[C@@H](C/C=C(\C)C[C@@H](C)/C=C/C=C4\CO[C@@H]5[C@H](O)C(C)=C[C@@H](C(=O)O3)[C@]45O)O2)O[C@H](/C(C)=C/C(C)C)[C@H]1C` has an inhibition of 2%.
The inhibition of `CC(=O)OCC(=O)[C@@]1(O)CC[C@H]2[C@@H]3CCC4=CC(=O)C=C[C@]4(C)[C@H]3[C@@H](O)C[C@@]21C` is reported as 2%.
